Assay results pooled from the literature.
Every numbered part comes from another study and shows a few of its results, in no order.

Study 1
Target: RNA binding protein fox-1 homolog 2, RRM domain, GST-SBP tag (RBFOX2, Homo sapiens, UniProt O43251-10, residues 100-194)
Method: RNA Bind-n-Seq
Molecule type: RNA
Sample: in vitro
Tested at: 365 nM
Notes: natural RNA segment, single round, ends assumed
Relative to: no-protein control
Direction: higher = stronger binding
Shared flanks, not repeated: GGGAGUUCUACAGUCCGACGAUC … UGGAAUUCUCGGGUGCCAA
| Sequence | RBNS enrichment (R) |
| --- | --- |
| AUAUUACUUAUUUAUCCCAGUAUUCCUAGCCUGUCAACAUAAUAAAUAUCGGAACAAAACCUGGUAACGUUAGUGUGGCACUGGUUUCUGCUAAGUGUUGAGUGACACGA | 0.426 |
| GAUAAAGAGAAGGAAACGCUGCAGAGGCACAAGCAUAAGCUGGCUUUGAGUCUUUGAAAGCUUGAUGGCCUCUGCACCCUACUGAAAACCCCCUAAGCCAGCAGGAGCAG | 0.376 |
| AAGCUAACCGCUGGCCCCGAAUCACGCAGCCCGUCCUUAAACGGCCUCGCCAUGUGCAUUGCCACCUCUGUUGUCCAGACGGGCACAUGCAGCACGCUGUGGUGACAGCC | 0.442 |
| GGUUUUUAAAAUAAGGUUUUCUAGUUUUGAGAGUGUGCACUUCACACAGGGGAAUGGGGUUACUUCUGUCUGAUCCUGGGCCUUUCUUUCAUCCCAAAUGACAAGGAAUG | 0.612 |
| AUUCAGUCUGUGUAACAUUUUCUUCUGUGUUUUUUACCAGCCAGCUCAAAAGUUAAGAGCAAAUUAUGGAAGAAUAAUUUGAUGUCUUUGAGAAACCAUGAGGUUUCUUU | 2.75 |
| UUUUCUAUUGUACUCUGCUUUAUCAAAGAAGUAAAACAUUUAAAUCGUACUACAGAAAUUAAGAUGUUGUCUUGCGAUCCUUAAUAAAUGAAUGAUUUCCCUUUAAUACG | 1.11 |
| GAGCAUCAGCAACGCCACAGACCCUGAACCCAGACCUUCCCCACCUCACCUCCUUCCCAUCCCGCCGAGCGUCCCAGACACUAACUCUUCCCAGAUGAUGACAAUGAAAU | 0.736 |
| CCAGCUCAGGGGGGCACUUUUAAGGAUCUAGAAAACAGAAAUUAAGGAUCUCAUAGUUAUUUUAUUAGGCCAGCCUUAUUCCAUGUCGGCAAGAGGUUUCUUGUGGAAAU | 0.814 |

Study 2
Target: RING finger protein unkempt homolog, zinc fingers 1-6, GST-SBP tag (UNK, Homo sapiens, UniProt Q9C0B0, residues 30-357)
Method: RNA Bind-n-Seq
Molecule type: RNA
Sample: in vitro
Tested at: not given
Notes: RNA with constant flanks, human and mouse sites, ends assumed
Relative to: input RNA pool
Direction: higher = stronger binding
Shared flanks, not repeated: GGGAGUUCUACAGUCCGACGAUC … CAACAGAGGAUUGAGCAUCA
Construct (chain): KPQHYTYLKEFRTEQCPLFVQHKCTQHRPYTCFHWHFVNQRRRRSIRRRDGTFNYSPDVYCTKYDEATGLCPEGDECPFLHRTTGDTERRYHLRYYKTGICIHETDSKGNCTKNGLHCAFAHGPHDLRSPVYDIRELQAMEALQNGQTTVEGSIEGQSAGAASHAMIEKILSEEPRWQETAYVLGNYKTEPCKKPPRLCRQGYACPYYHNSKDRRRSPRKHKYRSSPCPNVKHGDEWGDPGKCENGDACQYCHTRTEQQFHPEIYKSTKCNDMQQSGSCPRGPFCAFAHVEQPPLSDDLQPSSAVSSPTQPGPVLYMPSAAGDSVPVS
| Sequence | bound/input enrichment [ratio] |
| --- | --- |
| UUUUUAUGCGACCAUUGUCUCCGUGGUUGGGCUGCAUGUAGUUUUGGCAAUUUUUGUUUUUAUAGUAUGGAAGGAAGGUUUGCCACAGUGGCGGGAAAACAAAAAUGAUUAGGGCAGCAG | 3.14 |
| UUCCUUCUGCAUAAGGUUUUUGUAGUGUGAUGUCUUAAUCAUAGUCUACCAUCAAAUACUUUAGGAGUAUCCUUAAUGUUUAGAUAGAAUAUUAGCAGCAUGCAAUAAUUACAUCCUAAG | 5.2 |
| UUUUUUCAGUUUAUAUUAAUCUACUGUAUCAAUAAAAUUCUGUAAUUUGAAUGGGCUUUUAAUAGUCUAGAAUGUUAUUGUGUAUAGAUAUUACUUCUUGAACAUUAUGUUCAGAAAUGC | 2.24 |
| GACACCUAUCCAGUGUUUCAGAGACUCUUCCUUGAGAGUUCUGAUGCGAACCCAGUGCGCUAUGGACGUAGGCGGAUGAAGCUCCGGGACCUAAUGGAAGCAGCCAAUAUAUUUCUACAG | 0.177 |
| GGGUUCUGUCUCCGACCUCCUUGCCCGCCCAAAGCCUUGGCAUAAGCUUAGUCUGAAAGGACGGGAACCCUUUGUCCGCAUGCAGCUAUGGCUGAACGACCCCAACAAUGUGGAGAAGCU | 0.119 |
| CCAACACUUUGCUCCCUGGCAACCCCUAAUAUUUGGGAUCUCUCAAUGCUAUUUGCCUUCAUUAGCUUGCUCGUUAUGCUUCCCACUUGGUGGAUUGUGUCUUCCUGGCUGGUAUGGGGA | 0.246 |
| AGCAUGAAGCUGUUCGAUAGCAUCUGUAACAACAAGUGGUUUACAGACACGUCCAUCAUCCUUUUCCUCAACAAGAAGGACCUCUUCGAAGAAAAAAUAAAAAAGAGCCCCCUCACGAUA | 0.317 |
| GCUGCUAGGCCCCUUGAAAACAGAGCAGGGGGGCCUGUGGCACGUUCAGAGGAGCCUGGUGCCCCGCUGCCCGUGGCCGUCGGCACUGCCGAGCCAGGGGGCAGUAUGAAGACCACAUUC | 0.0922 |

Study 3
Target: Fragile X messenger ribonucleoprotein 1, C-terminal low-complexity region (Fmr1, Mus musculus, UniProt P35922)
Method: RNA Bind-n-Seq
Molecule type: RNA
Sample: in vitro
Tested at: 200 nM
Notes: whole 134-nt RNA, ends assumed
With: 150 mM LiCl
Relative to: input library
Direction: higher = stronger binding
Library: 7-deaza-guanosine replaces G
Shared flanks, not repeated: GGGAGUUCUACAGUCCGACGAUC … UGGAAUUCUCGGGUGUCAAGG
| Sequence | log2 enrichment |
| --- | --- |
| UGGGAGGUGCAUUUUGUUUAUUUUUUUAGCUCAUUUCCAGGGGUGGGAAUUUUUUUUUAAUAUGUGUCAUGAAUAAAGUUGUUUUUGAAA | 0.256 |
| GCAGGAAGUAAAAACAAAUGGAAAUGCUUCGGAUAGUGGCAGGGGUGGGGGUUGCUAAGGACAGGGUGGGAUGGGAGUGGGUAAAGAGUU | 1.07 |
| AAGUCCUGUGCUACACAUCGUAUGUACCGAAUCGGGUUUGGGGUUUGGGGUUUGGGAAAGUAUUAUGUUACGCCGUUCGGAUCUGCACUU | -1.82 |
| UCCUGUGCUACACAUCGUAUGUACCGAAUCGGGGCCCCCCGGCCCCCCGGCCCCCCGGGAAAGUAUUAUGUUACGCCGUUCGGAUCUGCA | 0.951 |
| GUCCUGUGCUACACAUCGUAUGUACCGAAUCGGAAAAAGGGAAAAAGGGGAAAAAGGGGAAAGUAUUAUGUUACGCCGUUCGGAUCUGCA | 0.644 |
| UGGCCCUGGUGGCAUGCGGGGAGUAAGAGGUGGCCUCAUGGAUCGUGGUGGUCCCGGUGGAAUGUUCAGAGGUGGCCGUGGUGGAGACAG | 0.3 |
| AAGUCCUGUGCUACACAUCGUAUGUACCGAAUCGGGAAAAAAAGGGUUUGGGAGGGAAAGUAUUAUGUUACGCCGUUCGGAUCUGCACUU | -1.69 |
| GUCCUGUGCUACACAUCGUAUGUACCGAAUCGGAAAAAGGGAAAAAGGGAAAAAGGGGAAAGUAUUAUGUUACGCCGUUCGGAUCUGCAC | 0.271 |

Study 4
Target: TAR DNA-binding protein 43, full length, His tag (TARDBP, Homo sapiens, UniProt Q13148, residues 1-414)
Method: RNA Bind-n-Seq
Molecule type: RNA
Sample: in vitro
Tested at: 20 nM
Notes: 6-mer, flanks averaged, single round
With: 150 mM KCl
Relative to: input library
Direction: higher = stronger binding
| Sequence | 6-mer enrichment (R) |
| --- | --- |
| UAAUAU | 0.697 |
| CUUCGA | 0.563 |
| UCGUAG | 0.749 |
| GGUUUU | 0.821 |
| UGCCAC | 0.684 |
| GCAACA | 0.764 |
| GUGGGC | 4.26 |
| GUGAUG | 1.42 |
| CUUACC | 0.58 |
| UCUGCC | 0.617 |
| AACGAG | 0.97 |
| CGAGCU | 0.749 |
| GUAGUU | 0.794 |
| CUGGAU | 0.734 |
| CCGCAA | 0.678 |
| AUCACA | 0.601 |
| CUCCAC | 0.593 |
| UCCCAG | 0.701 |
| GGCCAG | 1.91 |

Study 5
Target: Histone acetyltransferase KAT6A, winged helix 2, GST fusion (KAT6A, Homo sapiens, UniProt Q92794, residues 85-181)
Method: protein binding microarray
Molecule type: double-stranded DNA, one strand shown
Sample: in vitro
Tested at: not given
Notes: 8-mer, flanks averaged, mean of 2 arrays, mostly near background
Relative to: not given
Direction: higher = stronger binding
Construct (chain): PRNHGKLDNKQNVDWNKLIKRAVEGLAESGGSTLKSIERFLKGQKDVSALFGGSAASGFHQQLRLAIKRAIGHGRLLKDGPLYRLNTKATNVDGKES
| Sequence | E-score |
| --- | --- |
| AACGTTCT | -0.234 |
| TACACTAA | -0.133 |
| TACACAGA | -0.0528 |
| CCAGGGCA | 0.125 |
| CCGGCATA | -0.00105 |
| ATGTGGTG | -0.191 |
| GACGAATC | 0.104 |
| ATTCATAA | -0.0692 |
| ACGACCCC | -0.11 |
| ATTGATGA | -0.0767 |
| CTGTGGAC | -0.11 |
| ATGGGCGG | 0.104 |
| GTTCCACA | -0.0483 |
| GCGCTTCA | 0.104 |
| GACTAGCC | -0.123 |
| CGCACACA | 0.106 |
| AGTGTACG | -0.154 |
| CACTACGC | 0.0196 |
| AAAATCAG | 0.062 |

A few entries again (study 5):
| Sequence | E-score |
| --- | --- |
| TACACAGA | -0.0528 |
| CCAGGGCA | 0.125 |
| CCGGCATA | -0.00105 |
| ATGTGGTG | -0.191 |
| GACGAATC | 0.104 |
